Measurements collected from several papers.
Each line is one published result; not all experiments were run side by side. ± marks the error that the study gave.
Chain of UniProt P39656 (whole entry, looked up): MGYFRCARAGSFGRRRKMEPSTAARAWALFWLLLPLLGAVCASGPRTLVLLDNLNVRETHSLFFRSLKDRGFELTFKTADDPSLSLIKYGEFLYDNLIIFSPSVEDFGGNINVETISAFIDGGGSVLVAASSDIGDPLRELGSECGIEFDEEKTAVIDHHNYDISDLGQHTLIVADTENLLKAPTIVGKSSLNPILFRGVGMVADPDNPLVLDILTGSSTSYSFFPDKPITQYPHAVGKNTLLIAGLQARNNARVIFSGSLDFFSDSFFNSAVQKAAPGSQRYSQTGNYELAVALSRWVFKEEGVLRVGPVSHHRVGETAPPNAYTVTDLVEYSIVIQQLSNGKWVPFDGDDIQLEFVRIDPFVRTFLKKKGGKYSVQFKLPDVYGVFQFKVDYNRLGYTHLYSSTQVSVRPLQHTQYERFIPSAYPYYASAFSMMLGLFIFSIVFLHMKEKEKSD

C[C@H]1CN(c2n[nH]c3nc(N[C@H]4CC[C@H](NS(=O)(=O)CCC(F)(F)F)CC4)ncc23)CCO1
remaining binding (Dolichyl-diphosphooligosaccharide--protein glycosyltransferase 48 kDa subunit (Homo sapiens, UniProt P39656); Kinobeads competition, measured: DDOST; 0.16 µM, unit not given; reference: vehicle): 1.11

Cc1sc2c(c1C)C(c1ccc(Cl)cc1)=N[C@@H](CC(=O)Nc1ccc(O)cc1)c1nnc(C)n1-2
IC50 (HD-MB03; cell growth; 168 h, DMSO): 284 nM

O=C(NOC[C@H](O)CO)c1ccc(F)c(F)c1Nc1ccc(I)cc1F
IC50 (JH-2-002; cell confluence): 220 nM

Cc1ncsc1-c1ccc(CNC(=O)[C@@H]2C[C@@H](O)CN2C(=O)[C@@H](NC(=O)C2(F)CC2)C(C)(C)C)c(OCCOc2ccc(CN3CCN(c4cc(-c5ccccc5O)nnc4N)CC3)cc2)c1
IC50 (SMARCA4-mutant lung cancer cells; clonogenic growth; 10 days, median over cell lines): 110 nM

O=C1CCc2cc(-c3cccc(OC(=O)[C@H]4[C@H](c5ccccc5)[C@@H](C(=O)O)[C@H]4c4ccccc4)c3)ccc2N1
IC50 (RCaP mouse prostate cancer; cytotoxicity, MTT; 72 h): 15600 ± 600 nM

N.N.[Cl][Pt][Cl]
IC50 (A549/DDP cisplatin-resistant, non-transfected; cell viability, MTT; 48 h): 66800 nM

CC[C@H](C)[C@@H]1NC(=O)[C@@H]2CCCN2C(=O)[C@H](CC(C)C)NC(=O)[C@H](CC(C)C)NC(=O)CNC(=O)[C@@H](NC(=O)[C@@H](NC(=O)[C@H](CC(=O)O)NC(=O)CNC(=O)[C@@H](NC(=O)[C@H](C)NC(=O)CNC(=O)[C@H](CCCCN)NC(=O)[C@H](CC(C)C)NC(=O)[C@H](CC(C)C)NC(=O)[C@H](CCCCN)NC(=O)CNC(=O)[C@@H](NC(=O)[C@@H](N)CC(C)C)C(C)C)C(C)C)C(C)C)CSSC[C@@H](C(=O)O)NC1=O
log2 fold change (RNA-seq, measured: Bcl2l11; mouse, traumatic brain injury model, frontal cortex and hippocampus; dose not given; reference: TBI alone): -1.8

C=C(C)[C@H]1Cc2c(ccc3c2O[C@@H]2COc4cc(OC)c(OC)cc4[C@@H]2C3=O)O1
IC50 (THLE-2 without CYP expression; cytotoxicity; 48 h): 400 ± 100 nM

COc1cc2c(Oc3ccc4[nH]c(C)cc4c3F)ccnc2cc1OCC1(N)CC1
grade 3 Proteinuria (paediatric recurrent refractory sarcoma; 12 mg): 0%

COc1cc(C(=O)c2cc3c(-c4ccccc4)c(O)ccc3o2)cc(OC)c1OC
IC50 (MOLT-4; cell proliferation; 72 h): > 50000 nM

CC[C@H](C)[C@H](NC(=O)[C@H](Cc1ccccc1)NC(=O)[C@H](CCC(=O)O)NC(=O)[C@H](CCCNC(=N)N)NC(=O)[C@H](C)NC(=O)[C@H](C)NC(=O)[C@H](CCC(N)=O)NC(=O)[C@H](CCC(=O)O)NC(=O)[C@H](CCC(=O)O)NC(=O)[C@H](CC(C)C)NC(=O)[C@H](Cc1ccc(O)cc1)NC(=O)[C@H](CO)NC(=O)[C@H](CO)NC(=O)[C@@H](NC(=O)[C@H](CC(=O)O)NC(=O)[C@H](CO)NC(=O)[C@@H](NC(=O)[C@H](Cc1ccccc1)NC(=O)[C@@H](NC(=O)CNC(=O)[C@H](CCC(=O)O)NC(=O)[C@H](C)NC(=O)CCc1c[nH]cn1)[C@@H](C)O)[C@@H](C)O)C(C)C)C(=O)N[C@@H](C)C(=O)N[C@@H](Cc1c[nH]c2ccccc12)C(=O)N[C@@H](CC(C)C)C(=O)N[C@H](C(=O)N[C@@H](CCCNC(=N)N)C(=O)NCC(=O)N[C@@H](CCCNC(=N)N)C(=O)N[C@@H](CCCCNC(=O)COCCOCCNC(=O)COCCOCCNC(=O)CC[C@H](NC(=O)CCCCCCCCCCCCCCCCC(=O)O)C(=O)O)C(=O)NCC(=O)NCC(=O)N[C@@H](CO)C(=O)N[C@@H](CCCCNc1c(NCCCCCN(O)C(=O)CCC(=O)NCCCCCN(O)C(=O)CCC(=O)NCCCCCN(O)C(C)=O)c(=O)c1=O)C(=O)O)C(C)C [zirconium-89 labelled]
tissue uptake (rat, blood; iv, 3 nmol/kg, 4 h, ex vivo): 1.21 %ID/g

Cn1ncc(-c2nc(N[C@H]3CC[C@H](N)CC3)ncc2Cl)c1CC1CC1
IC50 (AML blasts, primary, RUNX1-mutated; blast expansion; HUVEC co-culture): 19 nM

CO[C@H]1C[C@@H]2CC[C@@H](C)[C@@](O)(O2)C(=O)C(=O)N2CCCC[C@H]2C(=O)O[C@H]([C@H](C)C[C@@H]2CC[C@@H](OC(=O)NCCOCCOCCOCCOCCOCCOCCOCCOCCC(=O)N3CCc4cc(Cn5nc(-c6ccc7oc(N)nc7c6)c6c(N)ncnc65)ccc4C3)[C@H](OC)C2)C[C@@H](O)[C@H](C)/C=C(\C)[C@@H](O)[C@@H](OC)C(=O)[C@H](C)C[C@H](C)/C=C/C=C/C=C/1C
constipation incidence (patients with advanced solid tumours; intravenous, 8 mg weekly, grade 3 or higher): 0%

COc1c(C)c2c(c(O)c1C/C=C(\C)CCC(=O)O)C(=O)OC2
IC50 (Kasumi 1; cell proliferation): 1820 nM

N[C@@H](Cc1ccc(N(CCCl)CCCl)cc1)C(=O)O
IC50 (7702 normal human cells; cell growth, CCK-8; 48 h): > 50000 nM

N.N.[Cl][Pt][Cl]
IC50 (mouse primary hepatocytes, 3D culture; MTT; 96 h): 4900 ± 66 nM

Cc1sc2c(c1C)C(c1ccc(Cl)cc1)=N[C@@H](CC(=O)OC(C)(C)C)c1nnc(C)n1-2
IC50 (HD-MB03; cell growth; single agent): 315 nM

CC(=O)N[C@H]1[C@@H](O[C@@H]2O[C@H](C[C@@H](O)[C@H]3O[C@@H](n4ccc(=O)[nH]c4=O)[C@H](O)[C@@H]3O)[C@H](O)[C@H](O)[C@H]2NC(=O)/C=C/CCCCCCCCCC(C)C)O[C@H](CO)[C@@H](O)[C@@H]1O
IC50 (breast cancer, MCF-10A and Vero; cell viability, WST-1; range over all lines): 110 to 520 nM

COc1cc(Nc2ncc(F)c(Nc3ccc4c(n3)NC(=O)C(C)(C)O4)n2)cc(OC)c1OC
IC50 (Glucagon-like peptide 1 receptor (GLP1R, Homo sapiens, UniProt P43220); binding): > 10000 nM

CN1CC[C@@H](c2c(O)cc(O)c3c(=O)cc(-c4ccc(C(F)(F)F)cc4Cl)oc23)[C@@H]1CO
patients with adverse event (measured: Hypoalbuminemia; relapsed AML; oral, 200 mg, grade 3-4, intermittent dosing): 20%

CC1=C(/C=C/C(C)=C/C=C/C(C)=C/C(=O)O)C(C)(C)CCC1
IC50 (HD-MB03; reference: DMSO): inactive

Nc1ccc(C(=O)Oc2ccc3[nH]c4ccccc4c3c2)cc1
IC50 (rat vascular smooth muscle cells; cell proliferation, MTT; added: PDGF-BB): 3090 nM
